Published values pooled from the literature.
A part holds a random share of what one study measured.

Series 1 — method: aptamer microarray, sandwich; form: DNA with 2'F-ANA; medium: in vitro; tested at: 200 nM; with: Cy3 exosite-II aptamer, 400 nM; direction: higher = stronger binding; sequence: GGTTGGTGTGGTTGG
Target: Prothrombin, mature alpha-thrombin (F2, Homo sapiens, UniProt P00734)
Notes: whole 15-mer aptamer, many near background
| Modification | mean fluorescence intensity [a.u.] |
| --- | --- |
| 2'F-ANA at 3 4 6 7 8 11 12 14 | 360 |
| 2'F-ANA at 1 2 6 7 8 9 10 11 15 | 54.5 |
| 2'F-ANA at 1 2 3 4 11 13 14 15 | 64.8 |
| 2'F-ANA at 2 3 7 8 12 14 | 733 |
| 2'F-ANA at 2 4 5 7 9 10 11 14 | 50.5 |
| 2'F-ANA at 1 2 9 11 13 14 15 | 54.1 |
| 2'F-ANA at 8 11 12 14 | 278 |
| 2'F-ANA at 2 4 6 7 10 13 | 68.1 |
| 2'F-ANA at 1 2 4 6 7 9 12 14 | 61.3 |
| 2'F-ANA at 1 3 4 6 7 11 13 15 | 127 |
| 2'F-ANA at 1 5 8 11 15 | 55.5 |
| 2'F-ANA at 2 3 4 6 8 9 10 13 14 15 | 152 |
| 2'F-ANA at 1 3 6 8 9 10 11 12 14 | 61.2 |
| 2'F-ANA at 4 5 8 9 13 14 15 | 45.4 |
| 2'F-ANA at 2 3 4 5 6 7 8 10 12 13 15 | 59.1 |
| 2'F-ANA at 2 4 7 8 9 11 13 14 15 | 85.9 |
| 2'F-ANA at 1 2 8 9 10 15 | 86.8 |
| 2'F-ANA at 2 3 5 6 7 8 9 10 11 13 | 54 |
| 2'F-ANA at 2 5 6 7 9 11 13 14 15 | 46.6 |
| 2'F-ANA at 1 3 6 7 10 11 13 14 | 57.4 |
| 2'F-ANA at 1 2 3 4 5 7 8 9 10 15 | 76.5 |
| 2'F-ANA at 1 2 3 4 5 8 9 10 13 14 | 44.4 |

Series 2 — method: competition protein-binding microarray; form: double-stranded DNA, one strand shown; medium: in vitro; tested at: 2 µM; with: Pho4 competitor, 0.05 µM; direction: higher = stronger binding
Target: Centromere-binding protein 1, full length, His-tagged (CBF1, Saccharomyces cerevisiae, UniProt P17106, residues 1-351)
UniProt P17106, sequence (whole entry, looked up): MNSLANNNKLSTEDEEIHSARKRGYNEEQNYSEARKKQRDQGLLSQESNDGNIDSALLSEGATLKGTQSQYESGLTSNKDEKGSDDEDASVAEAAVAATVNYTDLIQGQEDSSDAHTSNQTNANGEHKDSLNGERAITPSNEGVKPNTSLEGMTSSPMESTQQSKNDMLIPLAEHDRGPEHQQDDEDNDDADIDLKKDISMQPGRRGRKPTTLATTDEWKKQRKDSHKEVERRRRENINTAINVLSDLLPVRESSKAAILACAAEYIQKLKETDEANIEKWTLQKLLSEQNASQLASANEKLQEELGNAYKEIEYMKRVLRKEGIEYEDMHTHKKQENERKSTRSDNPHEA
Notes: whole 60-bp probe, lowest competitor level
| Sequence | fluorescence intensity [a.u.] |
| --- | --- |
| CAATGTTTGTTTCCTCACGTGTGTTGGAAAAGGAAAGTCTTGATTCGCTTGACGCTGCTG | 1620 |
| GGGCGCCGCGACGGTCACGTGCACAGCGGCAGGCCTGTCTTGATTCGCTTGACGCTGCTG | 13300 |
| TTCGCCGATTCTAATCATGTGACGCCTTTTCCCCAGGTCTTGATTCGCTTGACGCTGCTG | 2140 |
| TTTTACGTTTGAGGCCTCGTGGCCGAAATGGTACGCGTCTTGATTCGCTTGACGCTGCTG | 118 |
| AAAGCGGTAATTTGGGAAGTGGGTGCAGATATCTATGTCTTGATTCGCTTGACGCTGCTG | 75.2 |
| CTTTCCCGATCTTTTCACGTGGTCTTAGCACATTTGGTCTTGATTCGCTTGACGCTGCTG | 1360 |
| ACACTTCTGAGCGGCCACGTGTAGAGGGGTAAGCTAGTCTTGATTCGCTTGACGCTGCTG | 586 |
| ATGGCCTTTTGGCCTCACATGACAAATACAATCTCGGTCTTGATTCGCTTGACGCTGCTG | 485 |
| CTAACGAAGGTTTGATCAGTGGGTGACAAGCCAAGTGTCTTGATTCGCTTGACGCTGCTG | 64.6 |
| CCCCTATACATGGGGTACGTGCCAGTATTTTGAGGGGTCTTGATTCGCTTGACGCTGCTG | 115 |
| ATATAAAGTTGTCCTCACATGCGGCGTCCATTGTTCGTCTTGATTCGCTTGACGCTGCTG | 163 |
| GATGAGTATACTTGGTACGTGCCTACGCAGCCAATAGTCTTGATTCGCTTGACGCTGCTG | 78.1 |
| TGAAAAACTGCTTGATTCGTGCTTTTAACTCAGAGGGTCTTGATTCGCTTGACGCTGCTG | 60.9 |
| TATTCTAGTTAGCGTCACCTGATGCAGAATTGGCGGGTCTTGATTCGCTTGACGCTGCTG | 1610 |
| CTCTCGGGCGTCGCCAACGTGGTCGTTCAAATGCTTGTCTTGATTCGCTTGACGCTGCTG | 77.6 |
| AAAGCGGTAATTTGACCAGTGGGTGCAGATATCTATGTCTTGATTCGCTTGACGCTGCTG | 64.1 |
| AGCAATTCGGCCAACAACGTGCTTTCCTTCATCTCTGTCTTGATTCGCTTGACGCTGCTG | 157 |
| GTCTTGTCTCATTGGGAGGTGGGTGTCCCCACTTCAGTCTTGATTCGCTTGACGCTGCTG | 76.2 |
| CGGGCCGTTCCGCGGGATGTGACGCTTCGCAAGTTAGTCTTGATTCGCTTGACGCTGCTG | 58.6 |

Series 3 — method: protein binding microarray; form: double-stranded DNA, one strand shown; medium: in vitro; tested at: not given; baseline: not given; direction: higher = stronger binding
Target: Histone acetyltransferase KAT6A, winged helix 1, GST fusion (KAT6A, Homo sapiens, UniProt Q92794, residues 1-85)
Notes: 8-mer, flanks averaged, mean of 2 arrays, mostly near background
Residues (chain): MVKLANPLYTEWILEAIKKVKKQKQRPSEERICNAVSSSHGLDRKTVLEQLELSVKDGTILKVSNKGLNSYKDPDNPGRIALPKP
| Sequence | E-score |
| --- | --- |
| GGTGCTGA | -0.0544 |
| ACTGGAAT | -0.248 |
| CTTATGCA | -0.136 |
| ATTCGCGA | 0.00813 |
| TGAGCACA | -0.267 |
| ACAATGGG | -0.173 |
| AGGTTTTG | -0.0397 |
| GTCTTGAA | -0.0106 |
| ATTAGGAA | -0.0226 |
| ACCGTTAA | 0.0575 |
| CCTTTTTC | -0.203 |
| CTTATCCC | -0.033 |
| AATGCCCA | -0.148 |
| CCGGAAAA | 0.197 |
| ATCAGGTC | -0.0185 |
| TCAACTCA | -0.296 |
| CACACTCG | -0.0135 |
| CCGCAGAG | 0.122 |
| CGTACACG | 0.141 |
| CTGTTTGC | 0.0463 |
| CGGCTGCA | 0.237 |

Series 4 — method: protein-binding microarray; form: double-stranded DNA, one strand shown; medium: in vitro; tested at: 250 nM; notes: 60-bp whole probe; with: salmon DNA 0.4 mg/ml; baseline: random background probes; direction: higher = stronger binding; all sequences stand within: GCCTAGCAC … GTCTTGATTCGCTTGACGCTGCTG
Target: Interferon regulatory factor 7, full length, phosphomimetic (IRF7, Homo sapiens, UniProt Q92985, residues 1-503, S101K/S471D/S472D/S475D/S476D/S477D/S483D/S484D/S487D)
Construct (chain): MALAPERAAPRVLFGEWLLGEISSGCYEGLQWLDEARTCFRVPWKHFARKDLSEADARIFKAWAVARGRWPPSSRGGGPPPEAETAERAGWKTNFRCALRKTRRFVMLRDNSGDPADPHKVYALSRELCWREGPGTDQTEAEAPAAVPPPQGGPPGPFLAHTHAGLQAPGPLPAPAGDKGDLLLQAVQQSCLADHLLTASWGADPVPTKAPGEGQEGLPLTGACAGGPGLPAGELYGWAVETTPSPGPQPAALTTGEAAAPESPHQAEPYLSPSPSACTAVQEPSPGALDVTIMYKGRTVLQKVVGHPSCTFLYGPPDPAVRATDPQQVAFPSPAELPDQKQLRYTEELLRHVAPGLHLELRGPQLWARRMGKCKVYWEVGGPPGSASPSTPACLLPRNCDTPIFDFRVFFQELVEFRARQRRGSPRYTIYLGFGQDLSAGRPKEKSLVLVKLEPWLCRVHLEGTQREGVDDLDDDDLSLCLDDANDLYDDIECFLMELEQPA
| Sequence | log fluorescence [z-score] |
| --- | --- |
| TCAATTTCCATTATTGCACTGTGCTAG | 1.76 |
| GACGGACTGGTCACTGGGGACGTGCTA | -0.906 |
| GACGGACTGGGACTGGGAACGTGCTAG | -0.406 |
| TGAGGTTTCGGTTTCGGTTAGTGCTAG | 14.6 |
| GACGGTATCCTTCTCCTGTCGTGCTAG | 0.538 |
| GACGGTTTCGGGTATCGGGCCGTGCTA | 6.52 |
| TTAGGTTTCGGTTCCTGTTAGTGCTAG | 13.1 |
| TCAATTTTCTAAATGCCACTGTGCTAG | 1.47 |
| GAAGGTTTCGGTTTCGGGACGTGCTAG | 14.2 |
| TCACCTCTCTCTTTCCAACTGTGCTAG | 0.547 |
| TTAGGACTCCTTATCCTTTAGTGCTAG | 0.41 |
| TTAGGTTTTCTACTGCTTTAGTGCTAG | 0.528 |
| GGGCCTTGCATGTTTTTGACAGTGCTA | -0.227 |
| CACGGTATCCTTTTCCTGACGTGCTAG | 1.07 |
| TCATATATTATATATACAACTGTGCTA | 0.86 |
| TTAGGAGTCAACTCTCTAATTGTGCTA | -0.4 |
| TAAGGTTTCGGGTTTCGGTTAGTGCTA | 12.9 |
| GACGAACTGAGTTTCGACACGTGCTAG | 2.22 |
| TTAGGACTGGGTCTCAGTTAGTGCTAG | -0.0487 |

Repeated from above (series 3):
| Sequence | E-score |
| --- | --- |
| CTGTTTGC | 0.0463 |
| CTTATCCC | -0.033 |
| CGGCTGCA | 0.237 |
| CGTACACG | 0.141 |
| CCGCAGAG | 0.122 |
| GTCTTGAA | -0.0106 |
| CACACTCG | -0.0135 |
| ACTGGAAT | -0.248 |
